Published values collected from several papers.
Every numbered part comes from another study and shows a few of its results, in no order. Values joined by “and” are separate records of one study, mostly repeats; a detail may differ.

Set 1
Organism: Sarcocystis neurona
Effect on: parasite growth
Tested at: 10 µM
Time: 96 h
Notes: second screen
Relative to: untreated
`CNCCCN1c2ccccc2CCc2ccccc21` — result for “log2 fold change”: 0.31.
`O=C(c1ccc(OCCN2CCCCC2)cc1)c1c(-c2ccc(O)cc2)sc2cc(O)ccc12` — result for “log2 fold change”: 0.33.
For `C[C@@H]1C[C@H]2[C@@H]3CCC4=CC(=O)C=C[C@]4(C)[C@@]3(F)[C@@H](O)C[C@]2(C)[C@@]1(O)C(=O)CO`, “log2 fold change” read 0.27.
`O=C(NCCN1CCOCC1)c1ccc(Cl)cc1` — result for “log2 fold change”: 0.46.
Under “log2 fold change”, `CC(=O)Nc1nnc(S(N)(=O)=O)s1` is recorded as 0.2.
`CNC(=C[N+](=O)[O-])NCCSCc1ccc(CN(C)C)o1` — result for “log2 fold change”: 0.17.
Under “log2 fold change”, `Cc1c2oc3c(C)ccc(C(=O)N[C@@H]4C(=O)N[C@H](C(C)C)C(=O)N5CCC[C@H]5C(=O)N(C)CC(=O)N(C)[C@@H](C(C)C)C(=O)O[C@@H]4C)c3nc-2c(C(=O)N[C@@H]2C(=O)N[C@H](C(C)C)C(=O)N3CCC[C@H]3C(=O)N(C)CC(=O)N(C)[C@@H](C(C)C)C(=O)O[C@@H]2C)c(N)c1=O` is recorded as 0.17.

Set 2
Cell line: normal adjacent epithelium patient-derived organoids
Technique: CellTiter-Glo
Tested at: 0.1 µM
Notes: mean of five organoid lines
Relative to: DMSO
`Cc1c[nH]c2nccc(Oc3c(F)cc(Nc4cc(Cl)nc(N)n4)cc3F)c12` gave a viability of 120%.
With `CCCOc1ccc([C@H]2[C@H](C(=O)O)[C@@H](c3ccc4c(c3)OCO4)CN2CC(=O)Nc2c(CC)cccc2CC)cc1` the viability was 119%.
For `CS(=O)(=O)NCC[C@H](NC(=O)c1cncc2c1cnn2-c1ccc(F)cc1)c1ccnc(S(C)(=O)=O)c1`, the viability was 127%.
With `O=C(c1ccc(F)cc1)N1CC(COc2ccc(Br)cc2)(C(=O)O)C1` the viability was 104%.
For `Cc1ccc(-c2cnc([C@@]3(O)CC[C@H](C(=O)O)C(C)(C)C3)s2)cc1Nc1cccc(C(F)(F)F)n1`, the viability was 103%.
`Cc1c(NC(=O)c2cc(C(N)=O)nc3cc(F)ccc23)c(C(F)(F)F)nn1Cc1ccc(C(C)(C)C)cc1` gave a viability of 100%.
The viability of `COc1cccc(CNC(=O)c2nc3scc(COCc4ccc(C(=O)O)cc4)c3c(=O)[nH]2)c1` is reported as 109%.
`O=C(Nc1ccc(-n2nc(-c3cccnc3)cc2C(F)(F)F)cn1)c1ccc(-c2ccccc2)c(F)c1` gave a viability of 110%.
The viability of `CCCCN(CCCC)C(=O)CN1C[C@H](c2cc(OC)c3c(c2)OCO3)[C@@H](C(=O)O)[C@@H]1CC(C)(C)CCC` is reported as 108%.
`Nc1c(C(=O)NCc2ccc(C(=O)NCCCC3CCCCC3)cc2)cnn1-c1ccccc1` has a viability of 123%.
For `Cc1cc(Nc2nccc(C)n2)cc(-c2cnc([C@@]3(O)CC[C@H](C(=O)O)C(C)(C)C3)s2)c1`, the viability was 108%.
`N#Cc1ccc(Nc2ccc3[nH]c(=O)[nH]c3c2)c(Cl)c1` has a viability of 108%.
`COc1ccc2cc(OCC3(C(=O)O)CN(C(=O)c4ccc(F)cc4)C3)ccc2c1` has a viability of 116%.
With `CNCc1ccccc1-c1csc([C@H](C)Nc2nc(C)nc3cc(OC)c(OC)cc23)c1` the viability was 104%.
`O=S(=O)(NC1CCC(c2cc(F)ccc2F)(S(=O)(=O)c2ccc(Cl)cc2)CC1)C(F)(F)F` (centres unmarked) gave a viability of 101%.
The viability of `CS(=O)(=O)N1CCCC(NC(=O)[C@H](CCC2CCCCC2)NC(=O)c2ccc(CNC(=O)c3cnc4ccccn34)cc2)C1` (some centres unmarked) is reported as 125%.
`CC(C)CC(=O)N1CCc2nc(-c3ccc(Br)cc3)nc(N(C)Cc3ccccc3)c2C1` gave a viability of 131%.

Set 3
Compound: CC(C)(C(=O)O)[C@H](NC(=O)Cc1cccc(I)c1)c1ccc2oc(=O)[nH]c2c1
Technique: Incucyte 3D growth
Tested at: 30 µM
Reading: higher = more growth
It gave 7.72e+06 a.u. and 1.16e+07 a.u. and 1.11e+07 a.u. and 1.28e+07 a.u. and 1.25e+07 a.u. and 1.33e+07 a.u. for spheroid area (MEL-JUSO; 60.52 h).
A375; 54 h — spheroid area: 1.25e+07 a.u. and 2.96e+07 a.u. and 3.62e+07 a.u. and 1.14e+07 a.u. and 1.41e+07 a.u. and 2.77e+07 a.u.
The spheroid area was 5.5e+07 a.u. and 2.47e+07 a.u. and 2.63e+07 a.u. and 3.59e+07 a.u. and 8.11e+07 a.u. and 2.38e+07 a.u. (MEL-JUSO; 462.52 h).
It gave 2.87e+07 a.u. and 2.72e+07 a.u. and 3.28e+07 a.u. and 2.44e+07 a.u. and 2.82e+07 a.u. and 3.25e+07 a.u. for spheroid area (IPC-298; 150 h).
A375; 48.52 h — spheroid area: 2.29e+07 a.u. and 2.49e+07 a.u. and 2.65e+07 a.u. and 2.76e+07 a.u. and 2.45e+07 a.u.
The spheroid area was 8.41e+08 a.u. and 8.58e+08 a.u. and 8.51e+08 a.u. and 8.28e+08 a.u. and 8.12e+08 a.u. and 8.5e+08 a.u. (PC-9; 114 h).

Set 4
Cell line: mouse MPNST tumor cells
Technique: high-content immunofluorescence imaging
Item: nuclear SOX9
Tested at: 10 µM
Time: 12 h
Notes: mean of 2 replicates
Relative to: DMSO control
Reading: higher = more nuclear SOX9
`C(=C\c1ccccc1)/CN1CCN(C(c2ccccc2)c2ccccc2)CC1`: “nuclear SOX9 intensity” 120 % of DMSO.
`Cc1ccc(S(=O)(=O)N[C@@H](CCN)C(=O)N[C@@H](Cc2ccccc2)C(N)=O)c2ccccc12`: “nuclear SOX9 intensity” 101 % of DMSO.
`Oc1ccc(-c2nc(-c3ccc(F)cc3)c(-c3ccncc3)[nH]2)cc1` — result for “nuclear SOX9 intensity”: 195 % of DMSO.
`NCCNCCNCCNCCN` — result for “nuclear SOX9 intensity”: 103 % of DMSO.
`CCCc1ncc(C[n+]2ccccc2C)c(N)n1`: “nuclear SOX9 intensity” 105 % of DMSO.
`NC(=O)c1cnccn1`: “nuclear SOX9 intensity” 103 % of DMSO and 94.8 % of DMSO.
`O=C(Nc1ccc(Cl)cc1)C1CCCN(C(=O)c2cccc(-c3ccco3)c2)C1` (centres unmarked): “nuclear SOX9 intensity” 83.6 % of DMSO.
For `CC1(C)C(=O)N(CCN2CCC(C(=O)c3ccc(F)cc3)CC2)c2ccccc21`, “nuclear SOX9 intensity” read 102 % of DMSO.
Under “nuclear SOX9 intensity”, `CNc1oc(-c2cccc3ccccc23)nc1C#N` is recorded as 107 % of DMSO.
`O=C([C@@H](Cc1cccc(C(F)(F)F)c1)NS(=O)(=O)c1cc(F)c2c(c1)CCNC2)N1CCCC1` — result for “nuclear SOX9 intensity”: 122 % of DMSO.
`CCCn1c(=O)c(C)cn2nc(N)nc12` — result for “nuclear SOX9 intensity”: 102 % of DMSO.

Excerpt of the above (set 4):
`NCCNCCNCCNCCN` — result for “nuclear SOX9 intensity”: 103 % of DMSO.
`CCCc1ncc(C[n+]2ccccc2C)c(N)n1`: “nuclear SOX9 intensity” 105 % of DMSO.
`NC(=O)c1cnccn1`: “nuclear SOX9 intensity” 103 % of DMSO and 94.8 % of DMSO.
